Literature values that unrelated publications cite.
Numbers after ± are the reported error.

O=C(O)c1ccccc1Nc1ccc(CCc2ccc(Cl)c(Cl)c2)cc1  inhibition (SARS-CoV-2; viral cytopathic effect; Vero E6; 20 µM): 0.27%
Cc1ccnc2c1NC(=O)c1cccnc1N2C1CC1  IC50 fold change (HIV-1 reverse transcriptase K101Q; baseline: K101Q over wild type): 1.9 fold
CC(C)c1cc2c(c(O)c1O)[C@@]1(C(=O)O)CCCC(C)(C)[C@@H]1CC2  Ki (paraoxonase 1, human; inhibitor): 94 ± 30 µM
Cn1c(Cn2ccc(C(F)(F)F)c(Oc3cc(Cl)cc(C#N)c3)c2=O)n[nH]c1=O  EC50 (HIV-1; viral replication; MT-4, Y188L mutant): 2080 ± 1700 nM
CC(CN1c2ccccc2Sc2ccccc21)N(C)C (centres unmarked)  EC50 (MERS-CoV; viral replication, ELISA; Vero E6): 11800 nM
CC(C)(C)[C@H](NC(=O)C(F)(F)F)C(=O)N1C[C@H]2[C@@H]([C@H]1C(=O)N[C@H](C#N)C[C@@H]1CCNC1=O)C2(C)C  EC50 (SARS-CoV-2; viral replication; Calu-3): 1900 ± 800 nM
Fc1ccc([C@@H]2CCNC[C@H]2COc2ccc3c(c2)OCO3)cc1  IC50 (Ebola virus; viral replication, eGFP reporter virus; Vero E6): 7.45 µM
CC(C)(C)[C@H](NC(=O)C(F)(F)F)C(=O)N1C[C@H]2[C@@H]([C@H]1C(=O)N[C@H](C#N)C[C@@H]1CCNC1=O)C2(C)C  concentration over susceptibility (SARS-CoV-2; concentration not given, Paxlovid regimen): 10 fold

A few entries again:
Cc1ccnc2c1NC(=O)c1cccnc1N2C1CC1  IC50 fold change (HIV-1 reverse transcriptase K101Q; baseline: K101Q over wild type): 1.9 fold
